Results gathered from unrelated publications.
A part holds a random share of what one study measured. Substitutions count along the parent as printed.

Study 1 — method: protein binding microarray; form: double-stranded DNA, one strand shown; sample: in vitro; concentration: not given; reference: not given; reading: higher = stronger binding; endpoint: E-score
Target: Histone acetyltransferase KAT6A, winged helix 2, GST fusion (KAT6A, Homo sapiens, UniProt Q92794, residues 85-181)
Setting: 8-mer, flanks averaged, mean of 2 arrays, mostly near background
Residues (chain): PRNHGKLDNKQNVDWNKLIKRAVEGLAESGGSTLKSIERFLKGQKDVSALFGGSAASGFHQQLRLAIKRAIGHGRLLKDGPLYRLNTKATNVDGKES
ACTTACCC: -0.114
GTTCCAAC: 0.0341
GCTCTCCA: -0.151
AGTACCGA: -0.0688
CATGACGC: 0.0138
ACTGTCCG: 0.0486
ATTTGCTA: 0.0389
AGCATGCA: -0.143
ACCGGAAG: 0.107
TCGGCAGA: 0.092
TAACCGGA: -0.114

Study 2 — target: CCNE1, cyclin fold, Cln2 fusion (human); method: yeast growth competition, sequencing; sample: yeast; setting: strong parent motif; reference: not given; reading: higher = stronger binding; endpoint: normalised enrichment score
Starting sequence: E2F1 docking peptide (human); PPVKRRLDFETDH
PPVKRRLGFETDH [D8G]: 4.57
PPVKRRLDFVTDH [E10V]: 6.14
PPRKRRLDFETDH [V3R]: 0.572
PWVKRRLDFETDH [P2W]: 5.86
PPVKRRRDFETDH [L7R]: -0.0129
PPVKRRLDFEADH [T11A]: 5.74
PPVCRRLDFETDH [K4C]: 5.48
PPVKRRLYFETDH [D8Y]: 6.72
PPVKRRLDFETSH [D12S]: 6.43

Other studies, line by line
ATP5PB (Homo sapiens, UniProt P24539) — cross-linked residues (ATP5PO (Homo sapiens, UniProt P48047); cross-linking MS; cell fractions; together with: DSSO): K221 to K199
PhoQ, residues 284 288 289 292 302 303 TSTLRA — fold induction (PhoP, residues 12 14 15 18 19 NQFFI (Escherichia coli, UniProt P23836); Sort-seq, measured: YFP reporter; E. coli; PhoQ-PhoP variant library, together with: 10 µM Mg2+; reference: high Mg2+ state, higher = stronger signaling): 2.38
TIMM8A (Homo sapiens, UniProt O60220) — cross-linked residues (TIMM13 (Homo sapiens, UniProt Q9Y5L4); cross-linking MS; cell fractions; together with: DSSO): K50 to K64
RRP8 (Homo sapiens, UniProt O43159) — cross-linked residues (HNRNPA3 (Homo sapiens, UniProt P51991); cross-linking MS; cell fractions; together with: DSSO): S80 to K118
MDH2 (Homo sapiens, UniProt P40926) — interaction screen (HSPE1 (Homo sapiens, UniProt P61604); cross-linking MS; hits only): cross-linked

For quick reference, copied from above (other studies, line by line):
PhoQ, residues 284 288 289 292 302 303 TSTLRA — fold induction (PhoP, residues 12 14 15 18 19 NQFFI (Escherichia coli, UniProt P23836); Sort-seq, measured: YFP reporter; E. coli; PhoQ-PhoP variant library, together with: 10 µM Mg2+; reference: high Mg2+ state, higher = stronger signaling): 2.38
ATP5PB (Homo sapiens, UniProt P24539) — cross-linked residues (ATP5PO (Homo sapiens, UniProt P48047); cross-linking MS; cell fractions; together with: DSSO): K221 to K199
